Measurements collected from several papers.
Several values in a cell are separate wells, animals, samples, runs or records. ± marks the error that the study gave.
NQO2: Ribosyldihydronicotinamide dehydrogenase [quinone] (NQO2, Homo sapiens, UniProt P16083)
ALOX5: Polyunsaturated fatty acid 5-lipoxygenase (ALOX5, Homo sapiens, UniProt P09917)
Grin1/Grin2b: Glutamate NMDA receptor; Grin1/Grin2b (Grin1/Grin2b, Rattus norvegicus, UniProt P35439+Q00960)

Protein sequences, listed by entry. Tags and fused reporters are not part of them. Residues count along the entry.
UniProt P16083, whole entry: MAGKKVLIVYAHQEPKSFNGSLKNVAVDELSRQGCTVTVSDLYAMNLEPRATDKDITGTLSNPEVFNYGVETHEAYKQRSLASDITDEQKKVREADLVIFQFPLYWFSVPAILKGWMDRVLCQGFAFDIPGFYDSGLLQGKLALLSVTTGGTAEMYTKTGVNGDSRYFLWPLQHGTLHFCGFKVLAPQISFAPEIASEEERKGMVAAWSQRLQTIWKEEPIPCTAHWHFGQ
UniProt P09917, whole entry: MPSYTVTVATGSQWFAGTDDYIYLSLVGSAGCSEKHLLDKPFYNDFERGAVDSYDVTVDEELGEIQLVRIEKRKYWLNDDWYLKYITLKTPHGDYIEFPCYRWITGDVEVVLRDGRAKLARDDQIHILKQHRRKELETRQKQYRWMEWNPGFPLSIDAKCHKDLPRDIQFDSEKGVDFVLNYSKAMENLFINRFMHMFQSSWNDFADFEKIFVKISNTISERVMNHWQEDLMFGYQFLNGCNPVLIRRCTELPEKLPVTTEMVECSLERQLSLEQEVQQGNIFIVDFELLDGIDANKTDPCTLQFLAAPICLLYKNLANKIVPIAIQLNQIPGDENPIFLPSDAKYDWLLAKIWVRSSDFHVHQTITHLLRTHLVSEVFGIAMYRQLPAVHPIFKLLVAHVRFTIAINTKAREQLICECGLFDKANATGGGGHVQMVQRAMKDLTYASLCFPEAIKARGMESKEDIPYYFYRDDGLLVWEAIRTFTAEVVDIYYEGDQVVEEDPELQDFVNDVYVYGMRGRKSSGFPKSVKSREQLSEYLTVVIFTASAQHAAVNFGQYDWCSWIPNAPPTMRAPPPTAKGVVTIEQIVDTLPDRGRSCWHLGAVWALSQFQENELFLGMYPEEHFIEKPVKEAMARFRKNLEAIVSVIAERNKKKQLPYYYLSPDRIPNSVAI
UniProt Q00960, 27-1482 limits assumed: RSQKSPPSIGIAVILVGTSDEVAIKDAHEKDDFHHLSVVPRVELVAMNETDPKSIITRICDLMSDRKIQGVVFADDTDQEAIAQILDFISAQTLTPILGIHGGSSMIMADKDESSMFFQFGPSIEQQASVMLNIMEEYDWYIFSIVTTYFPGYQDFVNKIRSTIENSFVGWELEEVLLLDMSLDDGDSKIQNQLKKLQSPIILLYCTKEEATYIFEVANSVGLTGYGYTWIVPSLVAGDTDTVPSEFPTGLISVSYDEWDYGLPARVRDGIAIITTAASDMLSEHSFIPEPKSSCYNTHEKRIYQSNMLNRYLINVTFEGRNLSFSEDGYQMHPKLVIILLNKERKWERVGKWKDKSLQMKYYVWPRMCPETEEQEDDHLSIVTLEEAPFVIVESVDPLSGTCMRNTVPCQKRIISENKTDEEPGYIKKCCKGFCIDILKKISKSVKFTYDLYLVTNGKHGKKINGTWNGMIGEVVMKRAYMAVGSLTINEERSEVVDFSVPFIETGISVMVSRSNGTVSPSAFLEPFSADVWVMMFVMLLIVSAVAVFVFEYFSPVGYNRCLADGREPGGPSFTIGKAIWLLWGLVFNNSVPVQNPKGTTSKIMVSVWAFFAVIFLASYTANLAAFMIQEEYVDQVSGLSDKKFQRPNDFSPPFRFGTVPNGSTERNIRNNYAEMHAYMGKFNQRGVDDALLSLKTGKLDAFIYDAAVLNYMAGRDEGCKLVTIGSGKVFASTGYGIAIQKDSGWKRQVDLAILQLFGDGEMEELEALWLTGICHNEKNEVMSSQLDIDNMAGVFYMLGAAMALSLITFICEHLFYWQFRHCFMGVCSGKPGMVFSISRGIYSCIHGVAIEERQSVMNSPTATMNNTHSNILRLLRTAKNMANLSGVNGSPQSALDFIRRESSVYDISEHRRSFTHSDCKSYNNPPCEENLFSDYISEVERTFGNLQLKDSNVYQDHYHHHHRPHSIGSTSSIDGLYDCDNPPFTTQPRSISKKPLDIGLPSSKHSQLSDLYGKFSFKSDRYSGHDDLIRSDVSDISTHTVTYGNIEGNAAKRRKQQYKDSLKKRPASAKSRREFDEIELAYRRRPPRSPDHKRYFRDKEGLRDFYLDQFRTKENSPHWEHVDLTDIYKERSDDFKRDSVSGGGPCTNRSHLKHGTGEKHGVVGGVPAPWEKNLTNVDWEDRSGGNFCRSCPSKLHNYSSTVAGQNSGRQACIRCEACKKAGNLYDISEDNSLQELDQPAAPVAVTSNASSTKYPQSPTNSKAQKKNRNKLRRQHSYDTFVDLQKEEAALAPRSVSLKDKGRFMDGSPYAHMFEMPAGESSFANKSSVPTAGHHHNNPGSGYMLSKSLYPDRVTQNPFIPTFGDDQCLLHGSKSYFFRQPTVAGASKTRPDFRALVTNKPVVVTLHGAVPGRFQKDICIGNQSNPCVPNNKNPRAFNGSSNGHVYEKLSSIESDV
UniProt P28072, 35-239 limits assumed: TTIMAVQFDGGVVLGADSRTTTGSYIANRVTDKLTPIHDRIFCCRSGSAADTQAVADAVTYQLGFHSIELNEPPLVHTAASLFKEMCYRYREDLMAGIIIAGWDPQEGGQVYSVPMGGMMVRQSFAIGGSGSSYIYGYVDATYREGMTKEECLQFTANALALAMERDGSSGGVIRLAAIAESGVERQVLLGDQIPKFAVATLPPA
UniProt Q99250, whole entry: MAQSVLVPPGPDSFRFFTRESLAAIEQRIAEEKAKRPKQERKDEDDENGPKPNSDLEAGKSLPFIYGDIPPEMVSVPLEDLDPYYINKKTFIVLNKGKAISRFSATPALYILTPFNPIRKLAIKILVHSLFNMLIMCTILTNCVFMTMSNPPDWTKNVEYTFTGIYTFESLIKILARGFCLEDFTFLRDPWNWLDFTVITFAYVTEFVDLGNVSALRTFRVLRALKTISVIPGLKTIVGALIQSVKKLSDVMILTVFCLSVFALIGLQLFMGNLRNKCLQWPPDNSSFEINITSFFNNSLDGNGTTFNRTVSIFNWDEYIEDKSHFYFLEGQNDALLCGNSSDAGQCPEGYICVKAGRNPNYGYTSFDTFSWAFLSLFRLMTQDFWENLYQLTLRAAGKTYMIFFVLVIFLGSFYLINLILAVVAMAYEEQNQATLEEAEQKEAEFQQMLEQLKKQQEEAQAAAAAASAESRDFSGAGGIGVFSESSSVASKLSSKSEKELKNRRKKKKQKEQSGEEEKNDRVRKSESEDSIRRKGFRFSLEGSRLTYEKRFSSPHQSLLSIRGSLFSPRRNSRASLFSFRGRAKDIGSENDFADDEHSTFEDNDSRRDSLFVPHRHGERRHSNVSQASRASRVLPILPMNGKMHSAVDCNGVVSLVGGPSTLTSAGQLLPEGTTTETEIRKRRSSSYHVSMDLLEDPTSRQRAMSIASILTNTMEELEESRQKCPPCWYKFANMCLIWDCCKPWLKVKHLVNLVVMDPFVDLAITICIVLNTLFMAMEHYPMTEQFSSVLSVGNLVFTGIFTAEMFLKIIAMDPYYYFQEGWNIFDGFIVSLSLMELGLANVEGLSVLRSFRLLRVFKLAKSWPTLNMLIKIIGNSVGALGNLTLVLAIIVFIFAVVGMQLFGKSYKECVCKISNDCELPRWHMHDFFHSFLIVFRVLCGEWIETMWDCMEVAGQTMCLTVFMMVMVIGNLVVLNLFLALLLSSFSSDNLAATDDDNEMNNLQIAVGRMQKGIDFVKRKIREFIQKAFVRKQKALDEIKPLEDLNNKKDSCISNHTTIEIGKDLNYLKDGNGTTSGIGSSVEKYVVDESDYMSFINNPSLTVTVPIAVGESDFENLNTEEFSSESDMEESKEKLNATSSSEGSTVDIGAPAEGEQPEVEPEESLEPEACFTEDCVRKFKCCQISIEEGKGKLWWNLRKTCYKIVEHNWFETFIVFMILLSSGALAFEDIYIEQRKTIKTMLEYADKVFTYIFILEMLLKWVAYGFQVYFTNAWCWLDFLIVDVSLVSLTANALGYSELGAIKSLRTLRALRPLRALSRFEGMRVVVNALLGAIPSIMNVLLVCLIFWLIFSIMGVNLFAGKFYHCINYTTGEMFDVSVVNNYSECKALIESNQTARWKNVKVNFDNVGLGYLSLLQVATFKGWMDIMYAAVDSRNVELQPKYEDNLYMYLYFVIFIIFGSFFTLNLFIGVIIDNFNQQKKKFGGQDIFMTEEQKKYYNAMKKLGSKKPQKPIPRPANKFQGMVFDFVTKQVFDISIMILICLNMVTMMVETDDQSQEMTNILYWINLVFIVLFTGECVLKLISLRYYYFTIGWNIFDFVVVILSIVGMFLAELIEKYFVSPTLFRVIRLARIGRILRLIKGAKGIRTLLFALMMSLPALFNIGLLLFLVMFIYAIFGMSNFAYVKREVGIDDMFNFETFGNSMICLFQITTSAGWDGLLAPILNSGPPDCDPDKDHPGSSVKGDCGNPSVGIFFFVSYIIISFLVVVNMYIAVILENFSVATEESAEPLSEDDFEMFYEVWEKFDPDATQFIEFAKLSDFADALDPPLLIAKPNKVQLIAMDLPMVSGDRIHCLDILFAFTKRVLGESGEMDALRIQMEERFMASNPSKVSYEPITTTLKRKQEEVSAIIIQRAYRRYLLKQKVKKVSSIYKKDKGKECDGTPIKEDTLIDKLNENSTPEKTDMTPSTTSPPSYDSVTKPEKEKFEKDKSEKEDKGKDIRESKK
UniProt P10826, 183-417 limits assumed: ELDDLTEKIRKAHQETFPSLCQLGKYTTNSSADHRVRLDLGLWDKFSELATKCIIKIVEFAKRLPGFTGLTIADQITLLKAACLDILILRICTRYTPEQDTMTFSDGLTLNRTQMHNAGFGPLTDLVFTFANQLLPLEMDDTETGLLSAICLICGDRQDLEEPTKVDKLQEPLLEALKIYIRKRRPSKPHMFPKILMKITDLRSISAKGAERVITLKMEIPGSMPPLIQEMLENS
UniProt O15151, 23-111 limits assumed: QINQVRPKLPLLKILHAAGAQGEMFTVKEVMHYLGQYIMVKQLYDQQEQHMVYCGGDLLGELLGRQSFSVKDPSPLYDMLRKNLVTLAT
UniProt P11245, whole entry: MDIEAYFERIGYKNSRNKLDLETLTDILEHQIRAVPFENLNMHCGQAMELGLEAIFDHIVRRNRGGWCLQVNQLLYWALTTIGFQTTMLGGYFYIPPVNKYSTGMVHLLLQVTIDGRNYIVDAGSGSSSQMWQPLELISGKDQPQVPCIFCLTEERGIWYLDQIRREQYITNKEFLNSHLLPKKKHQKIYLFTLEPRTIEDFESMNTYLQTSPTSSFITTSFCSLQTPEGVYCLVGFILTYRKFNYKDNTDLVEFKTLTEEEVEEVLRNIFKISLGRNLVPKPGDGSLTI
UniProt Q16539, whole entry: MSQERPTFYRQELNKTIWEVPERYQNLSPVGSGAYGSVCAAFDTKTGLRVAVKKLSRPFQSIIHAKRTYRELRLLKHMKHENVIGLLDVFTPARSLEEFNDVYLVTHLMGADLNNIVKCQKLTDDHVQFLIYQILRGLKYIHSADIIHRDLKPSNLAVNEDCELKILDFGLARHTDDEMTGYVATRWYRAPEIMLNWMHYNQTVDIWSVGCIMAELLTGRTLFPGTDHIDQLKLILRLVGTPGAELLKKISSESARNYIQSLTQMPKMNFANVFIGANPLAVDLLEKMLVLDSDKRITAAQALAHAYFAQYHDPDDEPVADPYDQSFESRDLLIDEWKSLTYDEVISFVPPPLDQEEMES
UniProt O96017, whole entry: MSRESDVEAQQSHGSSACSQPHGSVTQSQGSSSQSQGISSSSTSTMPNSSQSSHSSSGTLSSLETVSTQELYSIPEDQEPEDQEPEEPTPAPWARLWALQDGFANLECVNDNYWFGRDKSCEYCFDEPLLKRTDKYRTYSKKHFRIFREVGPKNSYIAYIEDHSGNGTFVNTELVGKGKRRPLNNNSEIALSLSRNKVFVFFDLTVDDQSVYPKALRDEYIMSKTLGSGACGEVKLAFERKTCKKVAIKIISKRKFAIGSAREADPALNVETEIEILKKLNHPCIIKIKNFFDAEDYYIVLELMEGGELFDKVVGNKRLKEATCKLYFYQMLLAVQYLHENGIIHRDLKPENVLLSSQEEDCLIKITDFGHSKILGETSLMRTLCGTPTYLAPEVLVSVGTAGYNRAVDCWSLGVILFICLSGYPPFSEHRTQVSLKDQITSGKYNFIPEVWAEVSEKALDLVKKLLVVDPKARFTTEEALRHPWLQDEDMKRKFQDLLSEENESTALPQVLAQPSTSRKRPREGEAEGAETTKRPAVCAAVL
UniProt Q3XYE8, 1-234: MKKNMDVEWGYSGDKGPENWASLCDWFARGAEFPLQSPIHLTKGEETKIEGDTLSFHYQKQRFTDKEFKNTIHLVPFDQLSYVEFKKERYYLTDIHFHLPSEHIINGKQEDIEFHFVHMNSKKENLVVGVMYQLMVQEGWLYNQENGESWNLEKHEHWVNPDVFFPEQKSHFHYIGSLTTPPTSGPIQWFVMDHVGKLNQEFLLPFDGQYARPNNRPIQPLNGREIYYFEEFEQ

| SMILES | tested on | assay | test system | setting | scale | quantity | value |
| --- | --- | --- | --- | --- | --- | --- | --- |
| C=C(C)C(=O)Nc1ccc(-c2c(-c3ccc(Oc4nccc(C)n4)c(F)c3)c3c(N)ncnc3n2C)cc1 | MFE-296 | cell growth, CellTiter-Glo |  | 120 h, unit not given | baseline: untreated growth rate, higher = stronger inhibition | area over GR curve | 0.543 |
| CC(C)CC(NC(=O)C(Cc1ccccc1)NC(=O)c1cnc(C(=O)NC(Cc2ccccc2)C(=O)NC(CC(C)C)B(O)O)cn1)B(O)O (stereo not shown) | Proteasome subunit beta type-6 (PSMB6, Homo sapiens, UniProt P28072) | caspase-like activity, inhibitor, Proteasome-Glo | MM.1R | 24 h |  | IC50 | 9 ± 0.42 nM |
| CN(C)CCNC(=O)c1cc([N+](=O)[O-])cc2ccc(-c3ccccc3)nc12 | NQO2 | enzyme activity, inhibitor |  | no BSA, with: 200 µM NRH, DCPIP |  | IC50 | 40 ± 10 nM |
| COc1ccc2c(c1)OC(c1ccc(O)cc1)CC2 (stereo not shown) | ALOX5 | 5-LOX product formation, RP-HPLC | human PMNL | with: A23187 and arachidonic acid |  | IC50 | 5700 ± 900 nM |
| CC/C=C\C/C=C\CCC/C=C/C=C/C=C\CCCC(=O)O | DNA polymerase beta (Rattus norvegicus, UniProt P06766) | enzyme activity, inhibitor |  | with: 0.05 units polymerase |  | IC50 | 31600 ± 1900 nM |
| CC(=O)C12NC(C)(C)CC1(C)C(=O)C1=C2c2c(c3c4n2C(C)(C)CC2=C4C4(CC(C)(C)NC(C)(C4)C2=O)CC3(C)C)C(=O)C(C)(C)N1 (single isomer, unassigned) | Sodium channel protein type 2 subunit alpha (SCN2A, Homo sapiens, UniProt Q99250) | sodium current, inhibitor |  |  |  | IC50 | 23900 ± 2700 nM |
| CCCN(CCc1ccc(Cl)c(Cl)c1)C[C@H](O)COc1ccc(NS(C)(=O)=O)cc1 | Grin1/Grin2b |  |  | pH 7.6 |  | IC50 | 480 nM |
| CN(C)CCNC(=O)c1cccc2ccc(-c3ccc(-c4ccccc4)cc3)nc12 | NQO2 | enzyme activity, inhibitor |  | with: 200 µM NRH, DCPIP, 2 µM BSA |  | IC50 | 80 ± 8 nM |
| CN1C(=O)CCc2cc(CNC(C)(C)[C@@H](O)c3ccccc3)ccc21 |  |  | male CD-1 mouse, brain | subcutaneous, 10 mg/kg |  | AUC(0-inf) | 327000 ng·min/mL/g |
| O=C(NCc1ccco1)C1CN(c2cc(-c3cc(F)cc(F)c3)n[nH]c2=O)C1 | Tyrosine-protein kinase ITK/TSK (ITK, Homo sapiens, UniProt Q08881) | kinase activity, inhibitor, ADP-Glo |  |  |  | IC50 | 190 nM |
| CCOC(=O)C(C)Oc1ccc2c(=O)n(CC(=O)Nc3ccc4c(c3)OCCO4)ccc2c1 (stereo not shown) | Retinoic acid receptor beta (RARB, Homo sapiens, UniProt P10826) | inverse agonist, Gal4 UAS-luciferase reporter | HEK293T cells |  |  | IC50 | 450 nM |
| Cc1ccc(-c2n[nH]cc2-c2ccnc3ccccc23)nc1 | Serine/threonine protein kinase YCK2 (YCK2, Candida albicans, UniProt A0A1D8PKB4) | kinase activity, inhibitor, ADP-Glo |  | with: ATP 20 µM |  | IC50 | 4700 nM |
| CCOC(=O)c1c(-c2ccc(Cl)cc2Cl)n(-c2nc(-c3ccc(Cl)cc3)c3c(NC(=O)c4ccccc4)nnc-3[nH]2)[nH]c1=O | UACC-257 | SRB |  | 10 µM |  | cell growth | 20.2% |
| COc1cccc([C@@H]2N=C(c3ccc(OC)cc3OC(C)C)N(C(=O)N3CCNC(=O)C3)[C@@H]2c2ccc(Cl)cc2)c1 (relative stereo) | Protein Mdm4, N-terminal domain (MDM4, Homo sapiens, UniProt O15151) | MdmX-p53 binding, fluorescence polarization |  | MdmX residues 23-111 |  | IC50 | 24900 nM |
| CCOC(=O)Oc1ccc2c(c1OC(=O)OCC)C(=O)c1ccccc1C2=O | Arylamine N-acetyltransferase 2 (NAT2, Homo sapiens, UniProt P11245) | enzyme activity, inhibitor | recombinant in yeast lysate | with: 10 µM sulfamethazine and 100 µM acetyl-CoA |  | IC50 | 82200 ± 12900 nM |
| NS(=O)(=O)c1nnc(NC(=O)C2C3CC4CC(C3)CC2C4)s1 (stereo not shown) |  |  | n-octanol/PBS | pH 7.4 |  | logD | 1.5 |
| CC(C)C[C@H](NC(=O)[C@H](C)NC(=O)[C@H](CCCNC(=N)N)NC(=O)[C@H](CCCNC(=N)N)NC(=O)[C@H](CCCNC(=N)N)NC(=O)[C@H](C)NC(=O)[C@H](CC(C)C)NC(=O)[C@H](CCCNC(=N)N)NC(=O)[C@H](CO)NC(=O)[C@H](CCCCN)NC(=O)[C@H](CO)NC(=O)Cn1cc(COC(=O)[C@]2(C)C=C(C(=O)OC(C)(C)C)C(=O)CC2)nn1)C(=O)O | Mitogen-activated protein kinase 14 (MAPK14, Homo sapiens, UniProt Q16539) | enzyme activity, inhibitor, D-SENSOR kinase |  | 0.823 µM, unit not given | baseline: untreated | remaining activity | 0.353 and 0.306 and 0.297 |
| COc1ccc2[nH]c(C(=O)Nc3ccc(C(CC(C)C)=NNC(=N)N)cc3)cc2c1 | Serine/threonine-protein kinase Chk2 (CHEK2, Homo sapiens, UniProt O96017) | kinase activity, inhibitor, IMAP fluorescence polarization |  |  |  | IC50 | 0.29 ± 0.14 nM |
| CCCCCN(CCc1ccc(Cl)c(Cl)c1)C[C@H](O)COc1ccc(NS(C)(=O)=O)cc1 | Grin1/Grin2b |  |  | pH 6.9 |  | IC50 | 160 nM |
| COc1ccc(C=CC(=O)c2ccc(O)cc2)c(O)c1 | ALOX5 | 5-LOX product formation, RP-HPLC | human PMNL | with: A23187 and arachidonic acid |  | IC50 | 4400 ± 700 nM |
| NS(=O)(=O)c1nnc(NC(=O)C2C3CC2C3)s1 (stereo not shown) | alpha-carbonic anhydrase (Enterococcus faecium, UniProt Q3XYE8) | CO2 hydration, inhibitor, stopped-flow kinetics |  |  |  | Ki | 25.1 nM |
| N#Cc1c(-c2ccc(Cl)cc2Cl)n(-c2nc(-c3ccc(Cl)cc3)c3c(NC(=O)c4ccccc4)nnc-3[nH]2)[nH]c1=O | UACC-257 | SRB |  | 10 µM |  | cell growth | 69.7% |

A few entries again:
| SMILES | tested on | assay | test system | setting | scale | quantity | value |
| --- | --- | --- | --- | --- | --- | --- | --- |
| CC(C)C[C@H](NC(=O)[C@H](C)NC(=O)[C@H](CCCNC(=N)N)NC(=O)[C@H](CCCNC(=N)N)NC(=O)[C@H](CCCNC(=N)N)NC(=O)[C@H](C)NC(=O)[C@H](CC(C)C)NC(=O)[C@H](CCCNC(=N)N)NC(=O)[C@H](CO)NC(=O)[C@H](CCCCN)NC(=O)[C@H](CO)NC(=O)Cn1cc(COC(=O)[C@]2(C)C=C(C(=O)OC(C)(C)C)C(=O)CC2)nn1)C(=O)O | Mitogen-activated protein kinase 14 (MAPK14, Homo sapiens, UniProt Q16539) | enzyme activity, inhibitor, D-SENSOR kinase |  | 0.823 µM, unit not given | baseline: untreated | remaining activity | 0.353 and 0.306 and 0.297 |
| COc1ccc2[nH]c(C(=O)Nc3ccc(C(CC(C)C)=NNC(=N)N)cc3)cc2c1 | Serine/threonine-protein kinase Chk2 (CHEK2, Homo sapiens, UniProt O96017) | kinase activity, inhibitor, IMAP fluorescence polarization |  |  |  | IC50 | 0.29 ± 0.14 nM |
| CCCCCN(CCc1ccc(Cl)c(Cl)c1)C[C@H](O)COc1ccc(NS(C)(=O)=O)cc1 | Grin1/Grin2b |  |  | pH 6.9 |  | IC50 | 160 nM |
